Measurements of several laboratories.
Each numbered part is a random draw from the data of one study; scales do not carry over between parts.

Sample 1
Compound: C[C@H](NC(=O)Nc1cc2[nH]ncc2c(CO)n1)c1ccccn1
Read-out: cell-free assay
Concentration: 10 µM
Quantity: inhibition
target = Histamine H4 receptor (HRH4, Homo sapiens, UniProt Q9H3N8); value = 41.9%
target = Sigma non-opioid intracellular receptor 1 (SIGMAR1, Homo sapiens, UniProt Q99720); value = 12.8%
target = D(3) dopamine receptor (DRD3, Homo sapiens, UniProt P35462); value = 27.9%
target = Alpha-1D adrenergic receptor (ADRA1D, Homo sapiens, UniProt P25100); value = -7.9%
target = Alpha-2B adrenergic receptor (ADRA2B, Homo sapiens, UniProt P18089); value = -0.465%
target = 5-hydroxytryptamine receptor 6 (HTR6, Homo sapiens, UniProt P50406); value = -12.9%
target = Muscarinic acetylcholine receptor M2 (CHRM2, Homo sapiens, UniProt P08172); value = 14.1%
target = Sigma intracellular receptor 2 (TMEM97, Homo sapiens, UniProt Q5BJF2); value = 20.8%
target = Beta-3 adrenergic receptor (ADRB3, Homo sapiens, UniProt P13945); value = 13.6%
target = Muscarinic acetylcholine receptor M4 (CHRM4, Homo sapiens, UniProt P08173); value = 18.7%
target = Muscarinic acetylcholine receptor M5 (CHRM5, Homo sapiens, UniProt P08912); value = 7.22%
target = Alpha-1B adrenergic receptor (ADRA1B, Homo sapiens, UniProt P35368); value = 1.42%
target = 5-hydroxytryptamine receptor 7 (HTR7, Homo sapiens, UniProt P34969); value = 33.4%
target = Alpha-2C adrenergic receptor (ADRA2C, Homo sapiens, UniProt P18825); value = 11.5%
target = Beta-1 adrenergic receptor (ADRB1, Homo sapiens, UniProt P08588); value = 28.2%
target = Alpha-1A adrenergic receptor (ADRA1A, Homo sapiens, UniProt P35348); value = -8.5%
target = D(4) dopamine receptor (DRD4, Homo sapiens, UniProt P21917); value = 16.6%
target = Histamine H3 receptor (HRH3, Homo sapiens, UniProt Q9Y5N1); value = 21.1%
target = Alpha-2A adrenergic receptor (ADRA2A, Homo sapiens, UniProt P08913); value = 16.8%

Sample 2
Target: Beta-1 adrenergic receptor (ADRB1, Homo sapiens, UniProt P08588)
Action: antagonist
Quantity: IC50
Structure (SMILES) = CN(C)c1cccc(C(=O)Nc2ncc(-c3cnn(C)c3)c3c2OCC3)c1; value = ≥ 100 µM
Structure (SMILES) = COCCn1ccc2c(C3=CCOCC3)nc(-c3cccc(O)c3)cc21; value = ≥ 100 µM
Structure (SMILES) = Cc1noc2c(Nc3ccc(N4CCOCC4)cc3)cc(-c3cccs3)nc12; value = ≥ 100 µM
Structure (SMILES) = Cc1noc2c(NC3CCOCC3)cc(-c3ccccn3)nc12; value = ≥ 100 µM
Structure (SMILES) = COc1ccccc1N1CCN(CC(=O)Nc2cc(C)ccc2C)CC1; value = ≥ 100 µM

Sample 3
Species: mouse
Sample: microsomes or S9
Concentration: 2 µM
Time: 0.5 h
Quantity: remaining compound
Structure (SMILES) = O=C(c1csc(-c2ccsc2)n1)N(Cc1ncc[nH]1)c1cccc(F)c1; value = 1.15%
Structure (SMILES) = CC(C)c1oc(C2CCCN2S(=O)(=O)c2ccc3c(c2)COC3)nc1-c1ccccc1 (stereo not shown); value = 8.56%
Structure (SMILES) = c1ccc(OCC2CN(c3ccc4nnc(-c5ccsc5)n4n3)CCO2)cc1 (stereo not shown); value = 7.64%
Structure (SMILES) = COc1ccc(CN2C(=O)C3=C(C#N)c4ccccc4Oc4cccc2c43)cc1; value = 83.3%
Structure (SMILES) = Cc1ccc(-n2nc(C)c(NCc3cnn(C)c3)c2C)cc1; value = 31.6%
Structure (SMILES) = Cc1ccc(-c2cc(C(=O)Nc3ccc4c(c3)N(C)C(=O)CO4)no2)cc1; value = 24.8%
Structure (SMILES) = Cc1cc(Br)cc(C(=O)c2c(C(C)C)c(=O)[nH]c(=O)n2Cc2cc(F)nc(F)c2)c1; value = 63%
Structure (SMILES) = CCC(CC)(CC)S(=O)(=O)Cc1csc(C(C)(C)C)n1; value = 0.709%

Sample 4
Organism: Sarcocystis neurona
Read-out: parasite growth
Concentration: concentration not given
Notes: second screen
Baseline: untreated
Quantity: log2 fold change
Structure (SMILES) = CCC(C)(C)N=C(NC#N)Nc1cccnc1; value = 0.24
Structure (SMILES) = O=C(O)c1cc2ccccc2c(Cc2c(O)c(C(=O)O)cc3ccccc23)c1O.OCCOCCN1CCN(C(c2ccccc2)c2ccc(Cl)cc2)CC1; value = 0.15
Structure (SMILES) = Cl.O.O=C1N(c2ccccc2)c2ccccc2C1(Cc1ccncc1)Cc1ccncc1; value = 0.3
Structure (SMILES) = Nc1nc(=O)[nH]cc1F; value = 0.0219
Structure (SMILES) = CCOC(=O)c1ccc(OC(=O)CCCCCN=C(N)N)cc1.CS(=O)(=O)O; value = 0.28
Structure (SMILES) = Cl.Cn1c(NCCN(CCO)CCCc2ccc([N+](=O)[O-])cc2)cc(=O)n(C)c1=O; value = 0.41
Structure (SMILES) = CC1=C(C(=O)O)N2C(=O)[C@@H](NC(=O)[C@H](N)c3ccccc3)[C@H]2SC1.O; value = 0.22
Structure (SMILES) = CN(C)CCC=C1c2ccccc2CCc2ccccc21.Cl; value = 0.18
